Experimental data collected from several papers.
Protocols differ between the studies behind these lines. Several values in a cell are separate wells, animals, samples, runs or records. ± marks the error that the study gave.
rhlR: HTH-type quorum-sensing regulator RhlR (rhlR, Pseudomonas aeruginosa, UniProt P54292)
Chain of UniProt P54292 (whole entry, looked up): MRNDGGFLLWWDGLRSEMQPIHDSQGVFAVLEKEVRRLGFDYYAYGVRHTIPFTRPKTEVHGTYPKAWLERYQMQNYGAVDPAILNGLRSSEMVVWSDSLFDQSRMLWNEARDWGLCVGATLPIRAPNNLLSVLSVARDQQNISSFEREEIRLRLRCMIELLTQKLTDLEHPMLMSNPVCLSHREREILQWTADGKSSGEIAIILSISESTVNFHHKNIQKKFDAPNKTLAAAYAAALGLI
Astl: Astacin-like metalloendopeptidase (Astl, Mus musculus, UniProt Q6HA09)
Chain of UniProt Q6HA09 (whole entry, looked up): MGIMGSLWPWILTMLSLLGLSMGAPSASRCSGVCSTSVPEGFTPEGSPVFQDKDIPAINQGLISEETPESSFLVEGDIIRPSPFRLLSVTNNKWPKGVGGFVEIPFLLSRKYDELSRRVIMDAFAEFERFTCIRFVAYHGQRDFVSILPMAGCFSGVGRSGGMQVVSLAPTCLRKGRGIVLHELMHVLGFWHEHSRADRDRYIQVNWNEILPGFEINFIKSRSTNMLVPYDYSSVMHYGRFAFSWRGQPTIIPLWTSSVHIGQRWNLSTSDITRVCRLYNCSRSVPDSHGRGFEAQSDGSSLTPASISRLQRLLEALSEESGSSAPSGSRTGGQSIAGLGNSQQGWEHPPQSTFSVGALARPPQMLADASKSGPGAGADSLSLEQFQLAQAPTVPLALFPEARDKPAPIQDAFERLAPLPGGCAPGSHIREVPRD
HDAC6 ZnF-UBD domain: Protein deacetylase HDAC6, ZnF-UBD domain (HDAC6, Homo sapiens, UniProt Q9UBN7)
Chain of UniProt Q9UBN7 (whole entry, looked up): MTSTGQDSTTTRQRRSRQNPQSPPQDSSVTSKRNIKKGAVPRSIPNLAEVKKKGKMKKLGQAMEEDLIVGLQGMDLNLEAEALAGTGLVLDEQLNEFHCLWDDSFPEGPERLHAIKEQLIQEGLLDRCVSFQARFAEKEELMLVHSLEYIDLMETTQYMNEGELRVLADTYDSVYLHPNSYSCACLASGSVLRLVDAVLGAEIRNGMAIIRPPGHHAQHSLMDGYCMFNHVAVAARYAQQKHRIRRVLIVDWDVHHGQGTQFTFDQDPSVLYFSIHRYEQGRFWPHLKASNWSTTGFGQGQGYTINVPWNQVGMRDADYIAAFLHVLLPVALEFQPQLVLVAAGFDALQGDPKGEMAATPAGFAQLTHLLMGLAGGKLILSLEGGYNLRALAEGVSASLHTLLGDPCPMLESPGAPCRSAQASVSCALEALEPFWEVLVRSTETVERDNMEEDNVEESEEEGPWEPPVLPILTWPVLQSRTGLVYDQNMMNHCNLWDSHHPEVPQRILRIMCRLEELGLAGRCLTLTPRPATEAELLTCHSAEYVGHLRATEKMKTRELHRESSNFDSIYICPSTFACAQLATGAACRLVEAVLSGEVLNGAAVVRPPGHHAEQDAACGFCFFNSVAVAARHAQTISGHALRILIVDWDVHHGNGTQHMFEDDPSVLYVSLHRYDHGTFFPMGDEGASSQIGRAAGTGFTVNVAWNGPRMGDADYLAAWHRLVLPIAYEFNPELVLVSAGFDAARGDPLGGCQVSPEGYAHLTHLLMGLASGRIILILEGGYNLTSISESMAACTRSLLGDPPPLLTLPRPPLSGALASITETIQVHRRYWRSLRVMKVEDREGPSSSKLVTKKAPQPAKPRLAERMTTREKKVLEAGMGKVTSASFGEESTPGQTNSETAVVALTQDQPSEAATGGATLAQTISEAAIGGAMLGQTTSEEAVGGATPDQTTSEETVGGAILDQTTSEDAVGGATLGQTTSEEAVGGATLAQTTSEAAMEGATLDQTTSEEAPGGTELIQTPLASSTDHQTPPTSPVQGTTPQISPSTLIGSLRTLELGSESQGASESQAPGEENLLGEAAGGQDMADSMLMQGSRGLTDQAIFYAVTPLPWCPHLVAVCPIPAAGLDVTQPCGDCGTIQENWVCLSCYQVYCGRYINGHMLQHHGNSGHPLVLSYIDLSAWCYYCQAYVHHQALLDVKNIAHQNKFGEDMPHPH
CDK16 with cyclin Y: Cyclin-dependent kinase 16, with cyclin Y (CDK16, Homo sapiens, UniProt Q00536)
Chain of UniProt O15305 (whole entry, looked up): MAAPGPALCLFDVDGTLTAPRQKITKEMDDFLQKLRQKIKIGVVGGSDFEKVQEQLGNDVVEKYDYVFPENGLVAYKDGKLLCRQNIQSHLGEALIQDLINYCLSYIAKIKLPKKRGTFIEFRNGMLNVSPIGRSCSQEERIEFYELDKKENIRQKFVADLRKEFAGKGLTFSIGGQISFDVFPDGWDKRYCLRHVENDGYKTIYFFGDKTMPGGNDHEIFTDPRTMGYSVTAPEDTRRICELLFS
Chain of UniProt Q00536 (whole entry, looked up): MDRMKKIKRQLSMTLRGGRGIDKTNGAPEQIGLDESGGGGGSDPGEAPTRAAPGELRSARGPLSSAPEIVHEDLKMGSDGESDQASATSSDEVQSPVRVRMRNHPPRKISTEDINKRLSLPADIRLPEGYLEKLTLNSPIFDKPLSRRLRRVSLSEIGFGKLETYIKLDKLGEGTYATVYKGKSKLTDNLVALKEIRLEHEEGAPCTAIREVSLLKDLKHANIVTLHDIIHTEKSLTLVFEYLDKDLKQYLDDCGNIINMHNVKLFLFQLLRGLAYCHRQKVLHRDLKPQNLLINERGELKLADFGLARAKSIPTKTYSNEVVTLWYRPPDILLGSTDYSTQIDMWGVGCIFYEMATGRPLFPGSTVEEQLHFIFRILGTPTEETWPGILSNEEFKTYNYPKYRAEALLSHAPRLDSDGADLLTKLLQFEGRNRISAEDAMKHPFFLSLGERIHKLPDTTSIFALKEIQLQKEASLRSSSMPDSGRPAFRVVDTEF
Chain of UniProt Q9HBY8 (whole entry, looked up): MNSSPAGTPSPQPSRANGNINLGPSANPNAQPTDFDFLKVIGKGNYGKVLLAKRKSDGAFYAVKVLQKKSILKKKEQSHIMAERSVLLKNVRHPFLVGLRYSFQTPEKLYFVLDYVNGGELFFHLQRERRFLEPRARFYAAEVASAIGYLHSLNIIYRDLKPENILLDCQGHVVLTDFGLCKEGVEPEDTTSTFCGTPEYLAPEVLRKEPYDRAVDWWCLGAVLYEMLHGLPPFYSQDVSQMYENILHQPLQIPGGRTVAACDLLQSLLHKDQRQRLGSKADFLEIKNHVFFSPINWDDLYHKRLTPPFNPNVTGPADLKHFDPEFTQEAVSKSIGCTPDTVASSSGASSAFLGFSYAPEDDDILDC
Chain of UniProt Q13188 (whole entry, looked up): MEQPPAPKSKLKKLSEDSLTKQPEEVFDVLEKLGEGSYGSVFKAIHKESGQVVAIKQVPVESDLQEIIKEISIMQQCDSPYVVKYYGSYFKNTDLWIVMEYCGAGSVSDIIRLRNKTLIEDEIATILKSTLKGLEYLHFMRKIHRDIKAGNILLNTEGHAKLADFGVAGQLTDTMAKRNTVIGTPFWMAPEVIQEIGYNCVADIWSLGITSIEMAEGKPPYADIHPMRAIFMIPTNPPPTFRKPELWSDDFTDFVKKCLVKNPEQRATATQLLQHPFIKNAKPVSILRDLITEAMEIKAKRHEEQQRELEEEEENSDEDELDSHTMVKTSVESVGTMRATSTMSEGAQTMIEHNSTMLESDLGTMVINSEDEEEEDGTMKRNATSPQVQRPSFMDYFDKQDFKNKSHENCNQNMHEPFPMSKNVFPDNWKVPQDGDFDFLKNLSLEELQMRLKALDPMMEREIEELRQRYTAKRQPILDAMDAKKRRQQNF
Chain of UniProt P15056 (whole entry, looked up): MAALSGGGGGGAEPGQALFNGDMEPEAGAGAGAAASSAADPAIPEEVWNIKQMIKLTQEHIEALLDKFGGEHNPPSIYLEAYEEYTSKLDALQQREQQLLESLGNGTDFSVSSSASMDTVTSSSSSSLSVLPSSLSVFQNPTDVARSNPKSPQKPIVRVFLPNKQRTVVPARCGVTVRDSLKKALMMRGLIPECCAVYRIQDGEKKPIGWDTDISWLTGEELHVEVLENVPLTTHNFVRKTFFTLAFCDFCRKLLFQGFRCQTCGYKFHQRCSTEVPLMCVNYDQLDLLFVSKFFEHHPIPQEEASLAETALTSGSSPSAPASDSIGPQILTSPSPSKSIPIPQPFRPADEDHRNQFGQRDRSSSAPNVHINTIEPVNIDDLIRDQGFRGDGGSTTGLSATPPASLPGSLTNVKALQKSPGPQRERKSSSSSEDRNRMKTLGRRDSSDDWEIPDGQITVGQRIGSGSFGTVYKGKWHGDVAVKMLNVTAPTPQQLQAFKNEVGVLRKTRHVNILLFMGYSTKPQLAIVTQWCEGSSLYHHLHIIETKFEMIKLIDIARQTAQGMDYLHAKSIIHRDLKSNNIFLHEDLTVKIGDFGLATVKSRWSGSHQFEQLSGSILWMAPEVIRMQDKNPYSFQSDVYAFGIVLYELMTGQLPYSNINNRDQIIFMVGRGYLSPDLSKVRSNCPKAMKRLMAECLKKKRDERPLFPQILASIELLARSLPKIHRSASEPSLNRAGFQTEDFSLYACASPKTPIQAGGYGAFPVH
Chain of UniProt P45983 (whole entry, looked up): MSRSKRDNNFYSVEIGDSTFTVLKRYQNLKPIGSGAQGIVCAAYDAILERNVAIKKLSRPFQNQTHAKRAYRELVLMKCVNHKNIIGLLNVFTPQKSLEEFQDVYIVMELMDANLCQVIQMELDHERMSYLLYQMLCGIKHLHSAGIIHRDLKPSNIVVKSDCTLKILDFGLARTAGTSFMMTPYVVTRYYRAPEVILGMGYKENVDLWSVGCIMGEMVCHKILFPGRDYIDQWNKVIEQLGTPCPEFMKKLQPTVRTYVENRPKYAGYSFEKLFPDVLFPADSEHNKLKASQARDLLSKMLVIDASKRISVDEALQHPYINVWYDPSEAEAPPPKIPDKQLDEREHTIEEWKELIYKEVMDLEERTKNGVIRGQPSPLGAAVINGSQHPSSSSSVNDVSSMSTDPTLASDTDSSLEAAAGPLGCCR
Chain of UniProt O75716 (whole entry, looked up): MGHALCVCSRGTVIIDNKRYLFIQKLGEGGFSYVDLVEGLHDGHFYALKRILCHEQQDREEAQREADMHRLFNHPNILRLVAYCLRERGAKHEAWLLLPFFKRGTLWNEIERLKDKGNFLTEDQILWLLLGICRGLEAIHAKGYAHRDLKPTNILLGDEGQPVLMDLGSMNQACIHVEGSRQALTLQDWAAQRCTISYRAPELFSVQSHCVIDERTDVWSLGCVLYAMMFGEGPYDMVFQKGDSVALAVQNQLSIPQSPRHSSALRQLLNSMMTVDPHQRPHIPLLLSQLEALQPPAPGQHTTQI

COc1cc(C#CC(=O)c2ccccc2)ccc1O  remaining activity (rhlR; reporter gene, inhibitor; Pseudomonas aeruginosa QS reporter strain; 10 µM, 1.5 h; reference: DMSO control): 52%
COc1cc(-c2cncc3c2CN(C)Cc2cc(N4CCNCC4)ccc2-3)cc(OC)c1OC  remaining activity (Mitogen-activated protein kinase kinase kinase 5 (MAP3K5, Homo sapiens, UniProt Q99683); kinase activity; 1 µM, human enzyme, with: ATP 10 µM; reference: DMSO control): 109%
O=C(CCN(Cc1cccnc1)Cc1ccc2c(c1)OCO2)NO  remaining activity (Astl; enzyme activity, inhibitor, fluorogenic; 5 µM): 49 ± 4%
O=C(COP(=O)(O)O)[C@@H](O)[C@H](O)[C@H](O)COP(=O)(O)O  enzyme activity (Phosphomannomutase 2 (PMM2, Homo sapiens, UniProt O15305); 0.05 mM, unit not given; reference: activity at 0 mM set to 100): 97.1 and 97.6 and 98.7
O=C(C#Cc1ccc(F)c(F)c1)c1ccccc1Cl  remaining activity (rhlR; reporter gene, inhibitor, quorum sensing reporter strain; 10 µM, 1.5 h; reference: DMSO): 63%
O=C(CCN(Cc1ccncc1)Cc1ccc2c(c1)OCO2)NO  remaining activity (Astl; enzyme activity, inhibitor, fluorogenic; 5 µM): 61 ± 7%
Cc1cc(NC(=O)c2cccc(NC(=O)/C=C/CN(C)C)c2)ccc1Nc1nccc(-c2cccnc2)n1  remaining activity (Mitogen-activated protein kinase 8 (MAPK8, Homo sapiens, UniProt P45983); enzyme activity, inhibitor; 4.938 µM, 0 h, unit not given, with: GSH 10 mM pre-incubation; reference: vehicle): 0.068
C=CC(=O)N1CCC[C@@H](n2nc(-c3ccc(Oc4ccccc4)cc3)c3c(N)ncnc32)C1  remaining activity (Elongation factor 1-beta (Homo sapiens, UniProt P24534); 1 µM): 19.8%
O=C(NC1CCC1)c1ccc2nc(-c3cccc(NS(=O)(=O)NCCN4CCCCC4)c3)cn2c1  remaining activity (Proto-oncogene tyrosine-protein kinase ROS (ROS1, Homo sapiens, UniProt P08922); enzyme activity; 10 µM): 100%
O=C(O)c1ccc(Nc2ncc3c(n2)-c2ccc(Cl)cc2C(c2c(F)cccc2F)=NC3)cc1  remaining activity (PKCζ(h); kinase activity; 1 µM): 99%
Cc1cc(Nc2cc(N3CCN(C)CC3)nc(Sc3ccc(NC(=O)C4CC4)cc3)n2)[nH]n1  remaining activity (Serine/threonine-protein kinase 3 (STK3, Homo sapiens, UniProt Q13188); kinase activity, KinaseProfiler; 0.03 µM, species human; reference: control): 95%
O=C(O)CCC(=O)c1cccs1  Kd (HDAC6 ZnF-UBD domain): 555 µM
COc1cc(C#CC(=O)C2CCCCC2)ccc1O  remaining activity (rhlR; reporter gene, inhibitor, quorum sensing reporter strain; 10 µM, 1.5 h; reference: DMSO): 74%
COc1cc(F)ccc1-c1ncnc(Nc2cccc(C[S@](C)(=N)=O)c2)n1  remaining activity (Serine/threonine-protein kinase Sgk2 (SGK2, Homo sapiens, UniProt Q9HBY8); kinase activity; 10 µM, with: 10 µM ATP): 91%
COc1cc(C#CC(=O)c2ccccc2Cl)ccc1O  remaining activity (rhlR; reporter gene, inhibitor, quorum sensing reporter strain; 10 µM, 1.5 h; reference: DMSO): 62%
Nc1ncc2c(n1)-c1c([nH]c3ccc(-c4ccc(F)cc4)cc13)CCC2  remaining activity (Testis-specific serine/threonine-protein kinase 3 (TSSK3, Homo sapiens, UniProt Q96PN8); kinase activity, inhibitor, radiometric; 1 µM, with: ATP at Km): 132%
CC[C@@H]1[C@H](F)C(=O)N[C@@H]1COc1nccc2cc(C(N)=O)c(OC)cc12  inhibition (Serine/threonine-protein kinase 16 (STK16, Homo sapiens, UniProt O75716); ATP-site probe binding, ActivX profiling; THP-1 cell lysate; 0.04 mM, Lys2 site): 13.8%
COc1cccc(C(=O)C#Cc2ccc(O)c(OC)c2)c1  remaining activity (rhlR; reporter gene, inhibitor, quorum sensing reporter strain; 10 µM, 1.5 h; reference: DMSO): 64%
NC/C(=C\F)COc1cccc(Cn2c(=S)[nH]c(=O)c3[nH]cnc32)c1  remaining activity (Myeloperoxidase (MPO, Homo sapiens, UniProt P05164); LDL lipid peroxidation, inhibitor, cholesteryl ester hydroperoxide; 0.5 µM): 7.12%
COc1cc(C#CC(=O)c2ccc(Cl)cc2)ccc1O  remaining activity (rhlR; reporter gene, inhibitor, quorum sensing reporter strain; 10 µM, 1.5 h; reference: DMSO): 65%
CC#CC(=O)N1CCC[C@H]1c1nc(-c2ccc(C(=O)Nc3ccccn3)cc2)c2c(N)nccn12  remaining activity (CDK16 with cyclin Y; kinase activity, inhibitor, HotSpot radiometric; 100 nM, with: ATP 10 µM): 97.3 ± 3.4%
COc1cc(N2CCN(C)CC2)ccc1Nc1nc(N)n(C(=O)NCc2c(Cl)cccc2Cl)n1  remaining activity (Fibroblast growth factor receptor 4 (FGFR4, Homo sapiens, UniProt P22455); enzyme activity; 10 µM; reference: control): 0.05%
COc1cccc(C(O)C#Cc2ccc(O)c(OC)c2)c1 (stereo not shown)  remaining activity (rhlR; reporter gene, inhibitor, quorum sensing reporter strain; 10 µM, 1.5 h; reference: DMSO): 68%
O=C(O)CCC(=O)Nc1ccccc1  Kd (HDAC6 ZnF-UBD domain): > 1000 µM
CCC(C)C(=O)C#Cc1ccc(O)c(OC)c1 (stereo not shown)  remaining activity (rhlR; reporter gene, inhibitor, quorum sensing reporter strain; 10 µM, 1.5 h; reference: DMSO): 93%
C=CC(=O)N1CCC([C@@H]2CCNc3c(C(N)=O)c(-c4ccc(Oc5ccccc5)cc4)nn32)CC1  remaining activity (CDK16 with cyclin Y; kinase activity, inhibitor, HotSpot radiometric; 100 nM, with: ATP 10 µM): 77.7 ± 0.4%
CNc1ncc2c(/C=C/C(=O)N3CCC(OC)CC3)nn(Cc3cccc(C(F)(F)F)c3)c2n1  remaining activity (CDK16 with cyclin Y; kinase activity, inhibitor; 1 µM; reference: untreated control): 98%
C=CC(=O)N1CCC[C@@H](n2nc(-c3ccc(Oc4ccccc4)cc3)c3c(N)ncnc32)C1  remaining activity (Serine/threonine-protein kinase B-raf (BRAF, Homo sapiens, UniProt P15056); kinase activity, inhibitor, HotSpot radiometric; 100 nM, with: ATP 10 µM): 86.8 ± 0.5%
COc1cc(Nc2ncc3c(n2)-c2ccc(Cl)cc2C(c2c(F)cccc2OC)=NC3)ccc1C(=O)O  remaining activity (PRKCE; kinase activity; 1 µM): 99%
COc1ccc(F)cc1C(=O)NCc1ccc(-c2nn([C@@H](C)C(F)(F)F)c(N)c2C(N)=O)cc1  remaining activity (CDK16 with cyclin Y; kinase activity, inhibitor, HotSpot radiometric; 100 nM, with: ATP 10 µM): 92.3 ± 1.5%
Cn1cc(-c2ccc(-c3cncc(Cl)c3N3CCC4(CCNC4=O)CC3)cc2)cn1  log2 fold change (COLO 205; gene expression, microarray, item: KANK1 mRNA; concentration not given, 6 h; reference: untreated cells): -2.91

Repeated from above:
O=C(CCN(Cc1cccnc1)Cc1ccc2c(c1)OCO2)NO  remaining activity (Astl; enzyme activity, inhibitor, fluorogenic; 5 µM): 49 ± 4%
O=C(COP(=O)(O)O)[C@@H](O)[C@H](O)[C@H](O)COP(=O)(O)O  enzyme activity (Phosphomannomutase 2 (PMM2, Homo sapiens, UniProt O15305); 0.05 mM, unit not given; reference: activity at 0 mM set to 100): 97.1 and 97.6 and 98.7
CC[C@@H]1[C@H](F)C(=O)N[C@@H]1COc1nccc2cc(C(N)=O)c(OC)cc12  inhibition (Serine/threonine-protein kinase 16 (STK16, Homo sapiens, UniProt O75716); ATP-site probe binding, ActivX profiling; THP-1 cell lysate; 0.04 mM, Lys2 site): 13.8%
COc1cc(C#CC(=O)C2CCCCC2)ccc1O  remaining activity (rhlR; reporter gene, inhibitor, quorum sensing reporter strain; 10 µM, 1.5 h; reference: DMSO): 74%
COc1cc(C#CC(=O)c2ccccc2Cl)ccc1O  remaining activity (rhlR; reporter gene, inhibitor, quorum sensing reporter strain; 10 µM, 1.5 h; reference: DMSO): 62%
